Measured values gathered from unrelated publications.
Lines come from different studies, so protocols differ. Values joined by “and” are separate records of one study, mostly repeats; a detail may differ. ± marks the error that the study gave.
Gria1/Gria2: Glutamate receptor AMPA 1/2 (Gria1/Gria2, Rattus norvegicus, UniProt P19490+P19491)
Chain of UniProt P19491 (whole entry, looked up): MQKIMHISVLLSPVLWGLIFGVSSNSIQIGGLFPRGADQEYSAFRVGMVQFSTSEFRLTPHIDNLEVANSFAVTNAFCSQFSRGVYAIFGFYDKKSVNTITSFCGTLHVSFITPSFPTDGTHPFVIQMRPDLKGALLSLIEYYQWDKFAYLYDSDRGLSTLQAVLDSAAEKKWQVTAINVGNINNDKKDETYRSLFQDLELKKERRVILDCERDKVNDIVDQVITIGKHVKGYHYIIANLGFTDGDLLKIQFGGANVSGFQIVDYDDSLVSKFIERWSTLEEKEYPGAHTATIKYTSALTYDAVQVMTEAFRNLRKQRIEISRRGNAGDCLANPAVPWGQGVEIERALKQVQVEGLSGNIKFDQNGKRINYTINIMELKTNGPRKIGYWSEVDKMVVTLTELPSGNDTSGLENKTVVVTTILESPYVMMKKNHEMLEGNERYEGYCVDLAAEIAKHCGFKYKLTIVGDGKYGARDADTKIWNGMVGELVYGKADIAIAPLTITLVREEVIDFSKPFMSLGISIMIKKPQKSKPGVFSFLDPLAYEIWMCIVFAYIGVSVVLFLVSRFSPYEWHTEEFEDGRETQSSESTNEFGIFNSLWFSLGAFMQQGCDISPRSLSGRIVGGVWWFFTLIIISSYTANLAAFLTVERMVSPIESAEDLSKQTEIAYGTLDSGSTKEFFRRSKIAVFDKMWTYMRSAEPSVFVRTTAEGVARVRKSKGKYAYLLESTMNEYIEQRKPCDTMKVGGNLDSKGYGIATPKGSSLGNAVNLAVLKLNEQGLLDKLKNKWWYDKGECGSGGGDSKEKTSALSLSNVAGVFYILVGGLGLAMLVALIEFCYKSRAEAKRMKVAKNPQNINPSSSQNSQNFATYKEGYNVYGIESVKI
Chain of UniProt P19490 (whole entry, looked up): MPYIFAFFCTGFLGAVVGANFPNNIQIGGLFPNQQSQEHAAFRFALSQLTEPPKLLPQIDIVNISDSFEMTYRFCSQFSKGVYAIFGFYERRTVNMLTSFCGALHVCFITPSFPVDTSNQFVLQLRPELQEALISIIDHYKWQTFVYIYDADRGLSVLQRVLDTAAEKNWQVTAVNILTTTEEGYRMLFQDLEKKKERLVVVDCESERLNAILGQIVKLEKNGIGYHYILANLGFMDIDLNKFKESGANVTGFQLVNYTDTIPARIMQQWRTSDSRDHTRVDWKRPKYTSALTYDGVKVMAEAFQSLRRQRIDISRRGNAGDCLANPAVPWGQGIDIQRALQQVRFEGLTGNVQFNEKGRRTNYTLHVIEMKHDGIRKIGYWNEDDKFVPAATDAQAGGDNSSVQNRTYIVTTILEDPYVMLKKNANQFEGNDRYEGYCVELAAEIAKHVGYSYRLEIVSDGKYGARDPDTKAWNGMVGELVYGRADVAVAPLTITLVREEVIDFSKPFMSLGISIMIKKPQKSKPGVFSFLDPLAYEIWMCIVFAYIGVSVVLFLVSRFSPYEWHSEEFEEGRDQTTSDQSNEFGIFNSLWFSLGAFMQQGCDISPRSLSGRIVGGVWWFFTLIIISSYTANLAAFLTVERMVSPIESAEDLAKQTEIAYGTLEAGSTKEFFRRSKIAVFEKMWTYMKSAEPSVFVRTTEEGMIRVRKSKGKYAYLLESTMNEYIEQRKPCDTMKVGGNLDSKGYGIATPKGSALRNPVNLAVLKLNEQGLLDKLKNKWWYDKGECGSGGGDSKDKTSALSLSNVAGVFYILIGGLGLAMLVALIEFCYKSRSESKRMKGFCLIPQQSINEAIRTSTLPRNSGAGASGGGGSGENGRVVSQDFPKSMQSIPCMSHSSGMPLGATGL
GBA1 R534H: Lysosomal acid glucosylceramidase (GBA1, Homo sapiens, UniProt P04062, R534H)
Chain of UniProt P04062 (whole entry, unmodified, looked up): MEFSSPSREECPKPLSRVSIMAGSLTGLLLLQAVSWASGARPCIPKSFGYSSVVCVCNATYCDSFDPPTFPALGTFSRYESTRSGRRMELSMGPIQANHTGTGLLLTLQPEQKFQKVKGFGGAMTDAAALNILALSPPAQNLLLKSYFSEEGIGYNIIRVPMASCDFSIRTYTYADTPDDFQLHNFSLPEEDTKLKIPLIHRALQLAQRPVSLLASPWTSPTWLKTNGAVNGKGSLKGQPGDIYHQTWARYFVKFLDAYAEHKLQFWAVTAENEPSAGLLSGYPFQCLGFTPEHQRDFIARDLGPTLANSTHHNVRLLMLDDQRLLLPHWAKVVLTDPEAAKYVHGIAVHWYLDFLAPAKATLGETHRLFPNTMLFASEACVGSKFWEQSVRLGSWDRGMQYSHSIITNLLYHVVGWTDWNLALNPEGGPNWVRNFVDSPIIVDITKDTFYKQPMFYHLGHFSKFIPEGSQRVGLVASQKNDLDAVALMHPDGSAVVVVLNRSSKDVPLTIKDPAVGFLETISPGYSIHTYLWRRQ
P4HB: Protein disulfide-isomerase (P4HB, Homo sapiens, UniProt P07237)
Chain of UniProt P07237 (whole entry, looked up): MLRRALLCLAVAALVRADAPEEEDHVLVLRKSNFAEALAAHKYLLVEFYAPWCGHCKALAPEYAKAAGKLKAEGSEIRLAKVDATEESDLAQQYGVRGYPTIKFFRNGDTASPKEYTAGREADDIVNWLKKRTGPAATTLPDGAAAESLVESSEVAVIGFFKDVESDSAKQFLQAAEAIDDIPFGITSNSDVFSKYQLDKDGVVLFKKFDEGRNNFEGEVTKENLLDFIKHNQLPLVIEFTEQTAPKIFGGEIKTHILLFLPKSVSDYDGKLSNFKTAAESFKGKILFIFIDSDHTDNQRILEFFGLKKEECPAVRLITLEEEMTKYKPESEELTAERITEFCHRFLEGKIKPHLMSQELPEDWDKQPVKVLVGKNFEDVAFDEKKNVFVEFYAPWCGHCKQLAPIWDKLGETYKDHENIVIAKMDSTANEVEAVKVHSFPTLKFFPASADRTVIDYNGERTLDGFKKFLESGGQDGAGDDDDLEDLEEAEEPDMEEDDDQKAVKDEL
PSMB8: Proteasome subunit beta type-8 (PSMB8, Homo sapiens, UniProt P28062)
Chain of UniProt P28062 (whole entry, looked up): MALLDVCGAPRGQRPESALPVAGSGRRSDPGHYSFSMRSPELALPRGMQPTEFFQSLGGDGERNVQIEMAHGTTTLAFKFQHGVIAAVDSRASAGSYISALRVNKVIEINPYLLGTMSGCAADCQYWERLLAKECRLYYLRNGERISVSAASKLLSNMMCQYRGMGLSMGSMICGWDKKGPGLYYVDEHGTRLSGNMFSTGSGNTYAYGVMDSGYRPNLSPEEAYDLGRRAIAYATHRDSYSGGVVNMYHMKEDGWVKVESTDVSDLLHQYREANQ
IRAK4: Interleukin-1 receptor-associated kinase 4 (IRAK4, Homo sapiens, UniProt Q9NWZ3)
Chain of UniProt Q9NWZ3 (whole entry, looked up): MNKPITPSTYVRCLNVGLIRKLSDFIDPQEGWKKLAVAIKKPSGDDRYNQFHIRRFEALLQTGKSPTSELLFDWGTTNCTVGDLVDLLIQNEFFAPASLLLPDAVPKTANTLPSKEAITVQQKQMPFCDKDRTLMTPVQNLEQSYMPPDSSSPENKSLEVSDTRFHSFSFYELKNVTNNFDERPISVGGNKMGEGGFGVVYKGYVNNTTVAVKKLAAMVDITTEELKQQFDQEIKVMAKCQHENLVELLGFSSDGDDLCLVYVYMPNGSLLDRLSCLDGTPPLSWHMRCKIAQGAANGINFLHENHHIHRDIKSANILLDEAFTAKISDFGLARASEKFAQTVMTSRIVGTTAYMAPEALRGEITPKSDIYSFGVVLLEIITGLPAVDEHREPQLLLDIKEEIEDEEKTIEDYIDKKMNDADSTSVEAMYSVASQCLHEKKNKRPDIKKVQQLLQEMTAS
HDAC6: Protein deacetylase HDAC6 (HDAC6, Homo sapiens, UniProt Q9UBN7)
Chain of UniProt Q9UBN7 (whole entry, looked up): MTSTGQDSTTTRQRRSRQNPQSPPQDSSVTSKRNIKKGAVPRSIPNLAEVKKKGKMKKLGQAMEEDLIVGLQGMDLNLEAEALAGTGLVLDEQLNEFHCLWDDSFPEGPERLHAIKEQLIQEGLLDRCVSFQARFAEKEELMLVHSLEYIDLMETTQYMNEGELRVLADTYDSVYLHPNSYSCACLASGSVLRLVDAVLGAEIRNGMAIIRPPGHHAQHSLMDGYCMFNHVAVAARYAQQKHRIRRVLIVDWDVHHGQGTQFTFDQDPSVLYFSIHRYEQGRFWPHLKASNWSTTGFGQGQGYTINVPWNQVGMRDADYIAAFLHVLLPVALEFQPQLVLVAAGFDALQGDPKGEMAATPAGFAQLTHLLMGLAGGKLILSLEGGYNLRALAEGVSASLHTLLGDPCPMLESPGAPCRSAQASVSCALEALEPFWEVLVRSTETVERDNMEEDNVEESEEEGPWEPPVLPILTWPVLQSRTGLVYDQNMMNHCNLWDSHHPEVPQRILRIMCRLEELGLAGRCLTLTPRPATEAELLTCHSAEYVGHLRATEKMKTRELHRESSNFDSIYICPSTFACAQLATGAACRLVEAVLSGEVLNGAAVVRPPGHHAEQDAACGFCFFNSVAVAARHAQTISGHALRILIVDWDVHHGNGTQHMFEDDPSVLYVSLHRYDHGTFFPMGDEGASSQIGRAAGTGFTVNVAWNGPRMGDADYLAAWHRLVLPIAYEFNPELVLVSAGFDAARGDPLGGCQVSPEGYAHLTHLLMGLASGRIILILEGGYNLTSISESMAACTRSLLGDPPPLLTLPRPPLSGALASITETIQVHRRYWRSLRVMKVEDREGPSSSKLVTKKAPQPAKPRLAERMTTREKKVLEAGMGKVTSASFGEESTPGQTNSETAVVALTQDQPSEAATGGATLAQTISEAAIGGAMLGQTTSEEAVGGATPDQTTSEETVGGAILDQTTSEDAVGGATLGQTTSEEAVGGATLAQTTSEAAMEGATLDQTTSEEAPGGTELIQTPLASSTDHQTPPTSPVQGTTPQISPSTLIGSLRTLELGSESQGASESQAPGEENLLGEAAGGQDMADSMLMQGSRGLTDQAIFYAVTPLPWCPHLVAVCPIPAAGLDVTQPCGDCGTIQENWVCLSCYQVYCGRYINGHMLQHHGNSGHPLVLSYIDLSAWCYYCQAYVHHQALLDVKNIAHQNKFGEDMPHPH
Chain of UniProt P28072 (whole entry, looked up): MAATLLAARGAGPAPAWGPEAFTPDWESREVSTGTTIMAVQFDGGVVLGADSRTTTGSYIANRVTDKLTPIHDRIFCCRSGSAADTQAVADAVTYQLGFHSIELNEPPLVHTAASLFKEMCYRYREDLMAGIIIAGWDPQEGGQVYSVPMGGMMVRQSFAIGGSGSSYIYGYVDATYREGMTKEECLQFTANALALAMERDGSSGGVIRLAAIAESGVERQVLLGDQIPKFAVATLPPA

CC(=O)OC1OCC2C=C(C3(C)CCCCC3)CCC21 (single isomer, unassigned; (-))
IC50 (Peptidyl-prolyl cis-trans isomerase F, mitochondrial (PPIF, Homo sapiens, UniProt P30405); enzyme activity, inhibitor): < 0.5 µM

O=C(O)Cc1cc2c(cc1C(=O)c1ccccc1I)OCO2
IC50 (Gria1/Gria2; ion current, patch clamp): 4.68 µM

CC[C@H](C)C(=O)O[C@H]1C[C@@H](C)C=C2C=C[C@H](C)[C@H](CC[C@@H]3CC=CC(=O)O3)[C@H]21
IC50 (Cystic fibrosis transmembrane conductance regulator (CFTR, Homo sapiens, UniProt P13569); apical chloride current, inhibitor; T84, basolaterally permeabilized; added: CPT-cAMP 100 µM): 1.46 µM

O=C(O)c1ccc(NS(=O)(=O)c2ccc(Cl)c(Cl)c2)cc1
IC50 (17-beta-hydroxysteroid dehydrogenase 13 (Homo sapiens, UniProt Q7Z5P4); inhibitor, NAD(P)H-Glo; added: β-estradiol): 0.774 µM

O=C(O)Cc1cc2c(cc1C(=O)c1ccc(Cl)cc1Cl)OCO2
IC50 (Gria1/Gria2; ion current, antagonist, patch clamp): 3.89 µM

CCOc1cc(CN2CC3(CC(N4CCC(C(=O)O)CC4)=NO3)C2)cc(OCC)c1-c1ccc(F)cc1
IC50 (Somatostatin receptor type 5 (SSTR5, Homo sapiens, UniProt P35346); cAMP level, agonist, GloSensor; AD293; added: CST17 EC80 and forskolin): 0.2 µM

CCN(CC)CC(=O)Nc1cccc(-n2cc(-c3ccc4ccc(-c5cn(-c6cccc(NC(=O)CN(CC)CC)c6)nn5)cc4c3)nn2)c1
IC50 (Serine/threonine-protein kinase 17B (STK17B, Homo sapiens, UniProt O94768); enzyme activity, inhibitor): > 10 µM

COC1CN([C@H]2CC[C@H]([C@@]3(C)Oc4c(Cl)cc(C(=O)NCc5c(SC)cc(C)[nH]c5=O)c(C)c4O3)CC2)C1
log2 fold change (RNA-seq, refers to: FAM110C mouse homolog; mouse, HT-1376 xenograft, whole blood; dose not given; relative to: vehicle): 2.93

OC[C@@H]1[C@@H](O)[C@H](O)[C@@H](O)CN1CCCCCOCC1CCCC1
IC50 (GBA1 R534H; inhibitor, 4MU-β-D-glucopyranoside; added: 4MU-β-D-glucopyranoside): 13 µM

Cc1ccc(C)c(/C=C/C(=O)c2ccc(O)cc2)c1
IC50 (P4HB; enzyme activity, inhibitor): 1.97 µM

Cc1cc(N)n(-c2ccc(Oc3ccccc3)c(S(=O)(=O)O)c2)n1
IC50 (Protein FosB, ΔFosB isoform, with JunD (Fosb, Mus musculus, UniProt P13346); ΔFosB/JunD binding to AP-1 DNA, inhibitor, fluorescence polarization; protein, full length 280 nM, no TCEP, added: 25 nM TMR-cdk5 oligonucleotide): 10 to 90 µM

OC[C@H]1[C@@H](O)[C@H](O)[C@@H](O)CN1CCCC/C=C\C12CC3CC(CC(C3)C1)C2
IC50 (GBA1 R534H; inhibitor, 4MU-β-D-glucopyranoside; added: 4MU-β-D-glucopyranoside): 12 µM

Nc1ncc(-c2cc(-c3cnn(CC(F)(F)F)c3)ncc2F)nc1C(=O)NC1CNCC(F)C1 (stereo not shown)
remaining binding (RAF1; KINOMEscan; 1 µM; relative to: DMSO control): 99%

CC(C)C[C@H](NC(=O)[C@H](Cc1ccc(CN)cc1)NC(=O)[C@H](Cc1ccccc1)N=[N+]=[N-])C(=O)N[C@@H](CC1CC2CCC1C2)C(=O)[C@@]1(C)CO1 (stereo in doubt)
IC50 (PSMB8; enzyme activity, inhibitor; lysate): > 10 µM

Cc1cc(C)c(S(=O)(=O)N(CC(=O)O)c2ccc(Nc3ccnc(N4CCCC4)n3)cc2)c(C)c1
IC50 (RAC-beta serine/threonine-protein kinase (AKT2, Homo sapiens, UniProt P31751); enzyme activity, inhibitor): > 100 µM

CC(C)(C)NC(=O)C1CCN(Cc2cccc(/N=N/c3ccc(F)c(F)c3F)c2)CC1
IC50 (Atypical chemokine receptor 3 (ACKR3, Homo sapiens, UniProt P25106); ligand displacement, BRET): > 10 µM

Cc1nn(-c2cccc(N)c2)c(=O)c2cnc(Nc3ccc(N4CCNCC4)cc3)nc12
IC50 (IRAK4; enzyme activity, inhibitor): > 10 µM

CC(C)(C)COCCCCCN1C[C@H](O)[C@@H](O)[C@H](O)[C@H]1CO
IC50 (GBA1 R534H; inhibitor, 4MU-β-D-glucopyranoside; added: 4MU-β-D-glucopyranoside): 6.2 µM

C=CC(=O)Nc1cccc(Cn2ncc3cnc(Nc4cnn(CCOC)c4)nc32)c1
percent of control (LYN human; binding, KINOMEscan; 100 nM; lower = stronger binding): 81%

O=C(Cc1ccc(OCc2ccccc2)cc1)NC1(C(=O)O)CCN(C(=O)c2ccc(-c3cccc(Cl)c3)cc2)CC1
IC50 (Lysophosphatidic acid receptor 2 (LPAR2, Homo sapiens, UniProt Q9HBW0); antagonist, GloSensor cAMP): > 10 µM

Cc1cc(C)nc(Nc2ccc([C@@H]3CCCN(C(=O)/C=C/c4c(C)nn(C)c4C)C3)nc2)n1
IC50 (Cyclin-dependent kinase 6 (CDK6, Homo sapiens, UniProt Q00534); enzyme activity, inhibitor, ADP detection): 0.196 µM

O=C1CCC(N2C(=O)c3ccc(N4CCC(C(=O)N5CCC(CCN6CCC(CNC(=O)c7cccc(-c8noc(C(F)(F)F)n8)c7)(c7nc(-c8ccccc8)cs7)CC6)CC5)CC4)cc3C2=O)C(=O)N1 (stereo not shown)
IC50 (Histone deacetylase 9 (HDAC9, Homo sapiens, UniProt Q9UKV0); enzyme activity, inhibitor): 0.18 µM

CC(C)=CCC/C(C)=C/CC/C(C)=C/CN1C[C@@H](O)[C@H](O)[C@H](O)[C@@H]1CO
IC50 (GBA1 R534H; inhibitor, 4MU-β-D-glucopyranoside; added: 4MU-β-D-glucopyranoside): 100 µM

CN1CCN(c2ccc3[nH]c(-c4c(NC5CCNCC5)c5cc(Cl)ccc5[nH]c4=O)nc3c2)CC1
IC50 (WD repeat-containing protein 5 (WDR5, Homo sapiens, UniProt P61964)): ≤ 20 µM and 14.3 µM

Fc1cncc(-c2ccc3[nH]c4ncnc(N[C@H]5CC[C@H](N6CCOCC6)CC5)c4c3c2)c1
IC50 (IRAK4; enzyme activity, inhibitor, AlphaScreen; added: ATP 200 µM): 0.0118 µM

O=C(CCc1ccc(CNC(C(=O)OC2CCCC2)C2CCCCC2)cn1)NO (stereo not shown)
IC50 (HDAC6; enzyme activity, inhibitor): 0.052 µM

CC(C)(C)n1ncc2c(=O)n(Cc3cccc(F)c3)c(NCc3ccc(F)cn3)nc21
IC50 (cAMP and cAMP-inhibited cGMP 3',5'-cyclic phosphodiesterase 10A (PDE10A, Homo sapiens, UniProt Q9Y233); enzyme activity, inhibitor): > 10 µM

CC(C)(C)OC(=O)N1CCN(c2ccc3c(O)c(C(=O)NCc4ccc(C#N)nc4)ncc3n2)CC1
IC50 (Lysine-specific demethylase 3B (KDM3B, Homo sapiens, UniProt Q7LBC6); enzyme activity, inhibitor, AlphaScreen): > 10 µM

CC(C)(C)c1ccccc1OS(=O)(=O)Oc1cccc(C(=O)NO)c1
IC50 (HDAC6; enzyme activity, inhibitor, fluorescence): 0.919 µM

CNC(=O)N1CCN(c2ccc(NC(=O)c3nc(N)sc3-c3ccccc3)cc2C(F)(F)F)CC1
IC50 (Epithelial discoidin domain-containing receptor 1 (DDR1, Homo sapiens, UniProt Q08345); ligand displacement): 6.7 µM

CCCCCCCCOCCCCCN1C[C@H](O)[C@@H](O)[C@H](O)[C@H]1CO
IC50 (GBA1 R534H; inhibitor, 4MU-β-D-glucopyranoside; added: 4MU-β-D-glucopyranoside): 0.5 µM

OC[C@H]1c2[nH]cnc2[C@H](O)[C@@H](O)[C@@H]1O
IC50 (GBA1 R534H; 30 min preincubation, pH 5.2, added: 200 µM 2,4-dinitrophenyl-β-D-glucopyranoside): 6.1 µM

OC[C@@H]1[C@@H](O)[C@H](O)[C@@H](O)CN1CCCCCOCc1ccc(-c2ccccc2)cc1F
IC50 (GBA1 R534H; inhibitor, 4MU-β-D-glucopyranoside; added: 4MU-β-D-glucopyranoside): 0.25 µM

O=C(O)Cc1cc2c(cc1C(=O)c1cccc(I)c1)OCO2
IC50 (Gria1/Gria2; ion current, antagonist, patch clamp): 4.68 µM

O=C(NO)c1cncc(OS(=O)(=O)Oc2ccc(Oc3ccccc3)cc2)c1
IC50 (HDAC6; enzyme activity, inhibitor, fluorescence): 0.603 µM

Fc1ccc(Nc2nc(NC3CCCCC3)c3cc(Br)ccc3n2)cc1F
IC50 (Beta-2 adrenergic receptor (ADRB2, Homo sapiens, UniProt P07550, V126A); β-arrestin2 recruitment, antagonist, BRET; HEK293; mutant V126A, added: isoprenaline 1 µM): 0.794 µM

O=[N+]([O-])c1ccc(O[C@@H]2C=C(CO)[C@@H](O)[C@H](O)[C@H]2O)c([N+](=O)[O-])c1
IC50 (Lysosomal acid glucosylceramidase (GBA1, Homo sapiens, UniProt P04062); added: resorufin β-glucoside at Km): 0.17 ± 0.03 µM

OC[C@@H]1[C@@H](O)[C@H](O)[C@@H](O)CN1CCCCCOCc1ccsc1
IC50 (GBA1 R534H; inhibitor, 4MU-β-D-glucopyranoside; added: 4MU-β-D-glucopyranoside): 11 µM

O=C(/C=C/c1ccc(Cl)c(C(=O)O)c1)c1ccc(Br)cc1
IC50 (P4HB; enzyme activity, inhibitor): 90 µM

CC(C)C[C@H](NC(=O)[C@H](Cc1ccc(CN)cc1)NC(=O)[C@H](Cc1ccccc1)N=[N+]=[N-])C(=O)N[C@@H](CC1CCC(C2CCCCC2)CC1)C(=O)[C@@]1(C)CO1 (stereo partly shown)
IC50 (PSMB8; enzyme activity, inhibitor; lysate): > 10 µM

O=c1c(-c2cnn(-c3ccccc3)c2)c(C(F)(F)F)oc2c(O)c(O)ccc12
IC50 (Cullin-1, C-terminal domain with ROC1 (Homo sapiens, UniProt Q13616); inhibitor, FRET; added: ROC1-CUL1 CTD): 5.01 µM

CCOc1ccc(/C=C/C(=O)c2ccc3c(c2)OCCO3)cc1
IC50 (P4HB; enzyme activity, inhibitor): 52 µM

Cc1ccc(N=C2CC(=O)c3sc(C)nc3C2=O)cc1
IC50 (N-lysine methyltransferase SMYD2 (SMYD2, Homo sapiens, UniProt Q9NRG4, G165E); enzyme activity, inhibitor): 2 µM

OC[C@@H]1[C@@H](O)[C@H](O)[C@@H](O)CN1CCCCCOCCc1ccsc1
IC50 (GBA1 R534H; inhibitor, 4MU-β-D-glucopyranoside; added: 4MU-β-D-glucopyranoside): 6 µM

O=C(/C=C/c1cc(Br)ccc1F)c1ccc(O)cc1
IC50 (P4HB; enzyme activity, inhibitor): 1.07 µM

C[C@@H](O)[C@H](NC(=O)[C@@H]1CSSC[C@@H](NC(=O)[C@H](Cc2ccccc2)NC(N)=O)C(=O)N[C@@H](Cc2ccc(NC(N)=O)cc2)C(=O)N[C@H](Cc2c[nH]c3ccccc23)C(=O)N[C@@H](CCCCN)C(=O)N[C@@H]([C@@H](C)O)C(=O)N1)C(N)=O
IC50 (Somatostatin receptor type 1 (SSTR1, Homo sapiens, UniProt P30872); ligand displacement, radioligand): > 1 µM

COc1ccc(C(=O)/C=C/c2cccc(O)c2)cc1F
IC50 (P4HB; enzyme activity, inhibitor): > 100 µM

COCCN(C)CC(=O)NC(Cc1ccc(-c2ccccc2)cc1)B(O)O (stereo not shown)
IC50 (PSMB6/PSMB7 (Homo sapiens, UniProt P28072+Q99436); β1c caspase-like activity, inhibitor; constitutive proteasome, added: Z-LLE-AMC): > 10 µM

O=C(O)Cc1cc2c(cc1C(=O)c1ccccc1Br)OCO2
IC50 (Gria1/Gria2; ion current, patch clamp): 4.56 µM

O=C(/C=C/c1ccccc1OC(F)F)c1ccc(F)cc1
IC50 (P4HB; enzyme activity, inhibitor): > 100 µM

O=C(O)Cc1cc2c(cc1C(=O)c1ccccc1)OCO2
IC50 (Gria1/Gria2; ion current, antagonist, patch clamp): 5.5 µM

CCC(CC)C(=O)/C=C/C(=O)N1CCc2cc(Nc3ncc(C)c(-c4cnn(C(C)C)c4)n3)ccc2C1
IC50 (Tyrosine-protein kinase JAK3 (JAK3, Homo sapiens, UniProt P52333); enzyme activity, inhibitor, ADP detection): > 0.03 µM
